Assay results gathered from unrelated publications.
Each numbered part is a random draw from the data of one study; scales do not carry over between parts.
Sequence of UniProt Q96RR4 (whole entry, looked up): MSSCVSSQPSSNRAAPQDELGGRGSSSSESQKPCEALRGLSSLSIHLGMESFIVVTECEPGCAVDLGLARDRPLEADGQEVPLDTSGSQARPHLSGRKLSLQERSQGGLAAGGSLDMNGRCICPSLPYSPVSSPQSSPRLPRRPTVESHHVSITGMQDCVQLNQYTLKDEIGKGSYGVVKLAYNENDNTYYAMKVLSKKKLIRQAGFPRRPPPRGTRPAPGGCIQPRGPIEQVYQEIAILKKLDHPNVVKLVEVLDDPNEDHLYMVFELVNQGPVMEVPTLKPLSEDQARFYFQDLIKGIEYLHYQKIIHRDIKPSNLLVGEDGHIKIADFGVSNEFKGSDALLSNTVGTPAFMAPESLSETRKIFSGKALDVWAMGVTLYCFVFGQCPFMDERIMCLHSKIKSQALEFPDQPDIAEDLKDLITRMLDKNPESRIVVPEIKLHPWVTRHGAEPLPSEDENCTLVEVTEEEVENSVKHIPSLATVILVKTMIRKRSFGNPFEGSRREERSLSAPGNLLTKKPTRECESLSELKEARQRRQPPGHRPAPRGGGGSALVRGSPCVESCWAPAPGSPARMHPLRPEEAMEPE
Sequence of UniProt P54756 (whole entry, looked up): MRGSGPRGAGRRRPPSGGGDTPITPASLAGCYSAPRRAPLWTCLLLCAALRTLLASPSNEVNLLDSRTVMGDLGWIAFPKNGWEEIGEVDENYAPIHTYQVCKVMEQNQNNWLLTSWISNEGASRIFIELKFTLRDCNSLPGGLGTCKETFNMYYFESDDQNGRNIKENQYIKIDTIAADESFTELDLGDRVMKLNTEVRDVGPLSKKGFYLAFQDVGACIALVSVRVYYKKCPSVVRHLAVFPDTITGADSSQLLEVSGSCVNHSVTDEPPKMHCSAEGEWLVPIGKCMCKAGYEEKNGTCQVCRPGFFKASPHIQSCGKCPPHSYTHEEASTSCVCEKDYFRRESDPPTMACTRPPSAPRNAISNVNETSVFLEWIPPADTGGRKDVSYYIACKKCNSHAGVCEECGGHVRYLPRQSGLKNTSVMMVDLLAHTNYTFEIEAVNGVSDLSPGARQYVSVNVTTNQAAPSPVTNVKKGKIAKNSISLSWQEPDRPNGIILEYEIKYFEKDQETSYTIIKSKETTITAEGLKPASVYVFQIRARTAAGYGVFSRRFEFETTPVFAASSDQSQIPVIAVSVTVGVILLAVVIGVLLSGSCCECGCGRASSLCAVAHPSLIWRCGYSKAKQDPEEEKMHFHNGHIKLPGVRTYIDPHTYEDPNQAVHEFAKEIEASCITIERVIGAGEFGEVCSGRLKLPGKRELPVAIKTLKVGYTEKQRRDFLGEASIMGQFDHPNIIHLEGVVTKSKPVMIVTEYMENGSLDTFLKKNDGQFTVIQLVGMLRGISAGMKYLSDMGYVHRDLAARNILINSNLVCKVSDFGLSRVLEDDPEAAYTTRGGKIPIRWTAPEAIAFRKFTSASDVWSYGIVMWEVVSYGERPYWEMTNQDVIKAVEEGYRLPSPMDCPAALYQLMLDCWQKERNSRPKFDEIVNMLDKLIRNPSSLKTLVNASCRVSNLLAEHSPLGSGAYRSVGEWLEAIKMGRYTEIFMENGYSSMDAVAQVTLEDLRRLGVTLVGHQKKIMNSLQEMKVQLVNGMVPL
Sequence of UniProt Q08345 (whole entry, looked up): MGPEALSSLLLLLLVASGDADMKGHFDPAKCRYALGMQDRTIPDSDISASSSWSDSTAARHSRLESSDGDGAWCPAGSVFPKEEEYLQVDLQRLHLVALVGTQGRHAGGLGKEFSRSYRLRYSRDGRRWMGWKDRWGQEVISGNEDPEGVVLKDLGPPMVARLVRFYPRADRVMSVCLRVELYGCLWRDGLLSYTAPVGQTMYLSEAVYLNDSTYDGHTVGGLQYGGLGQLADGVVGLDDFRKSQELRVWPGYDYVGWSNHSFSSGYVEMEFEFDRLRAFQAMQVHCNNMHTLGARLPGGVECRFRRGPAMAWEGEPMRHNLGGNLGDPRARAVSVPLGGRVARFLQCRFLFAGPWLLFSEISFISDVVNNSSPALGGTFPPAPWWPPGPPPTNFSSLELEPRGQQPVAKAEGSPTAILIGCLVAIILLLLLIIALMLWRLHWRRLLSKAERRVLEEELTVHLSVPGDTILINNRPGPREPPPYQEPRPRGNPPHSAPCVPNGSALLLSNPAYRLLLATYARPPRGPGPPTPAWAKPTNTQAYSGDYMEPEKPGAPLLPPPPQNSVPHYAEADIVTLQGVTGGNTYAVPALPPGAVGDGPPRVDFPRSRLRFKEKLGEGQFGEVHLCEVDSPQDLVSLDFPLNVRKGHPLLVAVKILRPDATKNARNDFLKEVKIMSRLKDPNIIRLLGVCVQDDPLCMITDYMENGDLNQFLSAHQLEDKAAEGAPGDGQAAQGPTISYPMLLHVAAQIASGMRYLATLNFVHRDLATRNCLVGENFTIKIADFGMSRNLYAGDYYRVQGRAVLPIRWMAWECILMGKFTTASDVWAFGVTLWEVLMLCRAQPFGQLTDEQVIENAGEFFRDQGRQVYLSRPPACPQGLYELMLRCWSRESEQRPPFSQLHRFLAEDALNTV
Sequence of UniProt P10721 (whole entry, unmodified, looked up): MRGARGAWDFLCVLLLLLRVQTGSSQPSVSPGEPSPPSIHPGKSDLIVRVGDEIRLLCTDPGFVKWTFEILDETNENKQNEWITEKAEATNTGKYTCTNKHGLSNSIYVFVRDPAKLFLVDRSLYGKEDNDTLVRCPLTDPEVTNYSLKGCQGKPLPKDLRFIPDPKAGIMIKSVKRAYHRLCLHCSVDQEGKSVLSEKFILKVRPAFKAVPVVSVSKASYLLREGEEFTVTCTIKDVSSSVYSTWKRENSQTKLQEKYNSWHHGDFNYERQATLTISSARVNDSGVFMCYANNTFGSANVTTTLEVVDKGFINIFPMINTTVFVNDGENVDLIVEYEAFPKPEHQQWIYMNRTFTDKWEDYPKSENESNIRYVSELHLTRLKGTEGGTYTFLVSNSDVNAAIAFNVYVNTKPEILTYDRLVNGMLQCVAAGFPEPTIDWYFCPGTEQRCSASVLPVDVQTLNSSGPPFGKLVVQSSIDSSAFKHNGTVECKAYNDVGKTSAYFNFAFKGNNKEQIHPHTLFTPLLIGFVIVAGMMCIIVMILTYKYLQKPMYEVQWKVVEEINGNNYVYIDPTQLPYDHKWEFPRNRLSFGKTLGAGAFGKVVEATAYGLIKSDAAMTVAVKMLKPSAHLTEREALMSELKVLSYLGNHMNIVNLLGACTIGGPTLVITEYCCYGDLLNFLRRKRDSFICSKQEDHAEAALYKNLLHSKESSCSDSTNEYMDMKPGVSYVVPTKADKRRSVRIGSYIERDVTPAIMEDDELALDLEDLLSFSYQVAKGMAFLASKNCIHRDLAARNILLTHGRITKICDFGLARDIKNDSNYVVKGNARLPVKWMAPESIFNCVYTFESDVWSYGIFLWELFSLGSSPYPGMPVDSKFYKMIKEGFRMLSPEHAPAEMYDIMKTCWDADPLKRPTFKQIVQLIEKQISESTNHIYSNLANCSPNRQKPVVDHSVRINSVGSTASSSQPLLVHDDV

Set 1
Compound: Cc1c(C(=O)O)cc(-c2ccc(C3CCNCC3)cc2)c2ccc(-c3ccc(C(F)(F)F)cc3)cc12
Method: competition with immobilised ligand
Concentration: 1 µM
target | observed | remaining binding
Mast/stem cell growth factor receptor Kit (KIT, Homo sapiens, UniProt P10721, T670I/V559D) | binding | 100%
Epithelial discoidin domain-containing receptor 1 (DDR1, Homo sapiens, UniProt Q08345) | cell-free assay | 100%
Ephrin type-A receptor 5 (EPHA5, Homo sapiens, UniProt P54756) | cell-free assay | 100%
Calcium/calmodulin-dependent protein kinase kinase 2 (CAMKK2, Homo sapiens, UniProt Q96RR4) | binding | 100%

Set 2
Target: Histone acetyltransferase KAT6A, both winged helices, GST fusion (KAT6A, Homo sapiens, UniProt Q92794, residues 1-181)
Method: protein binding microarray
Form: double-stranded DNA, one strand shown
Matrix: in vitro
Concentration: not given
Setting: 8-mer, flanks averaged, mean of 2 arrays, mostly near background
Baseline: not given
Direction: higher = stronger binding
Target sequence (chain): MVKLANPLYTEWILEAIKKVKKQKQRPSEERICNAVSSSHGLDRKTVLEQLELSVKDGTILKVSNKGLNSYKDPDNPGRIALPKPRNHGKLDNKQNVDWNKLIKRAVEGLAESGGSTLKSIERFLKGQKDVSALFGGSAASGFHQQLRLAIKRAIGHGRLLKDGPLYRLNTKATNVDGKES
Strand | E-score
AGTTACAA | -0.0129
CCGGCGGA | 0.341
CCCTAGAG | -0.179
AAGCATAC | 0.00819
GGAGCCGA | 0.0777
CAGACGTC | -0.0308
AGTACCGC | 0.318
AATGACAA | -0.229

Set 3
Target: Aurora kinase A (AURKA, Homo sapiens, UniProt O14965)
Sequence of UniProt O14965 (whole entry, looked up): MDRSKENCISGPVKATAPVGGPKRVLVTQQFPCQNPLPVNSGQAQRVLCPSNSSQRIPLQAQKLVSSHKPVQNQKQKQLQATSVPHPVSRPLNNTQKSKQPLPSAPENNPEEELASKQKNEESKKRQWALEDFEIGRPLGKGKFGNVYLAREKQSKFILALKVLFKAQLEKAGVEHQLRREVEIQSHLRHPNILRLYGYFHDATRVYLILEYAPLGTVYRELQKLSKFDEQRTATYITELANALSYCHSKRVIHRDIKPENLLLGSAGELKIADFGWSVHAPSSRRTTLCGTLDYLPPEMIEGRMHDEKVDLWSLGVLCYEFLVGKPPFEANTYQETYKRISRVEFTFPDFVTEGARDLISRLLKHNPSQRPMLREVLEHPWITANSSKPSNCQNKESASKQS
Observed: enzyme activity
Mode: inhibitor
Concentration: 0.5 µM
Baseline: control
SMILES | remaining activity [%]
O=C1c2ccccc2-c2n[nH]c3cccc1c23 | 32.2
N#Cc1c(NC(=O)c2cccc3ccccc23)sc2c1CCCC2 | 101
COc1cc2ncnc(Nc3cccc(Cl)c3)c2cc1OC | 93.3
Nc1cccc(-c2cc3c(Oc4cccc(O)c4)ncnc3[nH]2)c1 | 78.2
CCN(CC)CCNC(=O)c1c(C)[nH]c(/C=C2\C(=O)Nc3ccc(Cl)cc32)c1C | 80.3
O=C1C(Cl)=C(N2C(=O)CCC2=O)C(=O)c2ccccc21 | 104
O=C(NC(NC(=S)Nc1ccc(F)c([N+](=O)[O-])c1)C(Cl)(Cl)Cl)C(c1ccccc1)c1ccccc1 (stereo not shown) | 80.8
CCN(CC)CCNC(=O)c1c(C)[nH]c(/C=C2\C(=O)Nc3ccc(F)cc32)c1C | 59.7
N#C/C(=C\c1ccc(O)c(O)c1)C(=O)NCc1ccccc1 | 92.2
c1ccc(-c2cnc(Nc3ccc(OCCN4CCCC4)cc3)s2)cc1 | 95.3
Cn1nc2c3c(cccc31)C(=O)c1ccccc1-2 | 89.4

Set 4
Target: Interferon regulatory factor 1, DNA-binding domain (IRF1, Homo sapiens, UniProt P10914, residues 1-114)
Method: protein-binding microarray
Form: hairpin DNA
Matrix: in vitro
Concentration: not given
Setting: whole hairpin DNA, median over replicate spots
Baseline: not given
Direction: higher = stronger binding
All sequences stand within: GAGGCCCGA … GGCCTCACAC
Residues (chain): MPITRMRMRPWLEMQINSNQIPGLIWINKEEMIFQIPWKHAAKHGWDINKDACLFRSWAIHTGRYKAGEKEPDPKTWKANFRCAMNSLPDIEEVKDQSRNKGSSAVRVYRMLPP
Strand | median fluorescence [a.u.]
AAGCGAAACGCCTCCTGGCGTTTCGCTTTCC (5mC at 13 33 40) | 693
AAGTCGAACGCCTCCTGGCGTTCGACTTTCG (5mC at 32) | 527
AAGCGAACCGCCTCCTGGCGGTTCGCTTTCG (5mC at 17) | 536
CAGCGAAACGCCTCCTGGCGTTTCGCTGTCG | 536
AAGCGAAATGCCTCCTGGCATTTCGCTTTCG | 794
GAGCGAAACGCCTCCTGGCGTTTCGCTCTCG (5mC at 37) | 514
AAGTGAAGCGCCTCCTGGCGCTTCACTTTCG | 556
AACGGAAACGCCTCCTGGCGTTTCCGTTTCG (5mC at 12 34) | 526

Repeated from above (set 2):
Strand | E-score
CCCTAGAG | -0.179
AAGCATAC | 0.00819
